Measured values of several laboratories.
Each line is one published result; not all experiments were run side by side. Values joined by “and” are separate records of one study, mostly repeats; a detail may differ.
Cell line: SF-295

Structure (SMILES) | assay | conditions | scale | endpoint | result
Cn1cncc1C1=CN(c2ncnc3[nH]cnc23)CCS1 |  | CNS cancer |  | TGI | > 200 µM
O=C1NCCc2[nH]c(-c3ccncc3)cc21 | MTS | NCI60 panel |  | IC50 | 7.64 µM
C#C[C@@]1(O)[C@@H](CO)O[C@@H](n2cc(Cl)c3c(N)ncnc32)[C@@H]1O | SRB | NCI-60 screen |  | TGI | 1.9 µM and 3.2 µM
CCCCN1CCN(c2ccc3[nH]c(-c4ccc5[nH]c(-c6ccc(OCC)cc6)nc5c4)nc3c2)CC1 | SRB | 10 µM, 48 h |  | growth percent | 48.7%
Cc1cc(-c2ccccc2)n(-c2nc(-c3ccc(Cl)cc3)c3c(NC(=O)c4ccccc4)nnc-3[nH]2)n1 | SRB | 10 µM, NCI60 single-dose screen | baseline: untreated | cell growth | 91%
CCCN1CCN(c2ccc3[nH]c(-c4ccc5[nH]c(-c6cc(OC)c(OC)c(OC)c6)nc5c4)nc3c2)CC1 | SRB | 10 µM, 48 h |  | growth percent | 65.9%
C#C[C@@]1(O)[C@@H](CO)O[C@@H](n2cc(I)c3c(N)ncnc32)[C@@H]1O | SRB | NCI-60 screen |  | TGI | 3.77 µM
O=C(Nc1nnc2[nH]c(=S)[nH]c(-c3ccc(Cl)cc3)c1-2)c1ccccc1 | SRB | 10 µM, NCI60 single-dose screen | baseline: untreated | cell growth | 102%
COc1ccc(OC)c(-c2nc3ccc(-c4nc5ccc(N6CCN(C)CC6)cc5[nH]4)cc3[nH]2)c1 | SRB | 10 µM, 48 h |  | growth percent | 111%
CSc1nc(-c2ccc(Cl)cc2)c2c(NC(=O)c3ccccc3)nnc-2[nH]1 | SRB | 10 µM, NCI60 single-dose screen | baseline: untreated | cell growth | 96.2%
CCCCN1CCN(c2ccc3[nH]c(-c4ccc5[nH]c(-c6ccc(C(F)(F)F)cc6)nc5c4)nc3c2)CC1 | SRB | 10 µM, 48 h |  | growth percent | -84%
Cc1cc(C)n(C(=S)[S][Au][PH](CCCCCC[PH]([Au][S]C(=S)n2nc(C)cc2C)(c2ccccc2)c2ccccc2)(c2ccccc2)c2ccccc2)n1 | cell growth, NCI-60 screen | CNS cancer |  | log10 TGI | -5.11
NNc1nc(-c2ccc(Cl)cc2)c2c(NC(=O)c3ccccc3)nnc-2[nH]1 | SRB | 10 µM, NCI60 single-dose screen | baseline: untreated | cell growth | 103%

Excerpt of the above:
Structure (SMILES) | assay | conditions | scale | endpoint | result
Cc1cc(-c2ccccc2)n(-c2nc(-c3ccc(Cl)cc3)c3c(NC(=O)c4ccccc4)nnc-3[nH]2)n1 | SRB | 10 µM, NCI60 single-dose screen | baseline: untreated | cell growth | 91%
